Experimental data of several laboratories.
A part holds a random share of what one study measured.
Chain of UniProt P14921 (whole entry, unmodified, looked up): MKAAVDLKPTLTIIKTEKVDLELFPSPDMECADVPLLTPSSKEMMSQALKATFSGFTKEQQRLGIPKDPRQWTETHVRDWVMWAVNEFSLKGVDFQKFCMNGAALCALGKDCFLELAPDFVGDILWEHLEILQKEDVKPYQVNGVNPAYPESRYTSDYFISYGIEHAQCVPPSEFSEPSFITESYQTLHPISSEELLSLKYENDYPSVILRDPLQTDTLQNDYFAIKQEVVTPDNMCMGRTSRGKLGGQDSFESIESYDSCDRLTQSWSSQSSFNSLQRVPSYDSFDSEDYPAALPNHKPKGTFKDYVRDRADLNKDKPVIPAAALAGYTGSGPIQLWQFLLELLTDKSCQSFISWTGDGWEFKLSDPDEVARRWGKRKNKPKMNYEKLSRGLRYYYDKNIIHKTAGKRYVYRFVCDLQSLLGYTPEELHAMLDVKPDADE
Chain of UniProt Q9Y261 (142-269, looked up): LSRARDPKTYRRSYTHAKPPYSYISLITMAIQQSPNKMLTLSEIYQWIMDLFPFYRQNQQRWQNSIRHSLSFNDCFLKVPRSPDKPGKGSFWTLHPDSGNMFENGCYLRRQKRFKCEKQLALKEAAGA

Series 1
Target: PABPC1L2, full length, GST fusion (mouse, UniProt A0ABA7IW68)
Technique: RNAcompete
Form: RNA
Medium: in vitro
Tested at: 20 nM
Setting: 7-mer, probes averaged, single round
Relative to: mean of 7-mers
Direction: higher = stronger binding
Construct (chain): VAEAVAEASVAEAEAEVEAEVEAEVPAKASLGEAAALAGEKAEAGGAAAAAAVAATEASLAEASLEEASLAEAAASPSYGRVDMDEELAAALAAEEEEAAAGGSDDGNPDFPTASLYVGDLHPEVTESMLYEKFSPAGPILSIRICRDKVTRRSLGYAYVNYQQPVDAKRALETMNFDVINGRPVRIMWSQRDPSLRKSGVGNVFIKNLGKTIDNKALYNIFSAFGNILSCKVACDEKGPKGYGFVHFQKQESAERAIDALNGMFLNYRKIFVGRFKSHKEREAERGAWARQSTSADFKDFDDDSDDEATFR
Oligonucleotide | 7-mer Z-score
GAACACU | -0.0464
CUGCCGU | -0.394
GAUGCUC | -0.324

Further values, each from its own experiment
Molecule | target | assay | system | setting | how to read | quantity | value
GGAATATA | Histone acetyltransferase KAT6A, winged helix 2, GST fusion (KAT6A, Homo sapiens, UniProt Q92794, residues 85-181) | protein binding microarray | double-stranded DNA, one strand shown, in vitro | not given, 8-mer, flanks averaged, mean of 2 arrays, mostly near background | relative to: not given, higher = stronger binding | E-score | 0.0211
ACGCGCGG | Protein C-ets-1 (ETS1, Homo sapiens, UniProt P14921, residues 1-441, Y397A, full length assumed) | protein-binding microarray | double-stranded DNA, one strand shown, in vitro | not given, k-mer, scored over probes, only values ≥0.25 | higher = stronger binding | E-score | 0.259
GGCGCTAC | Histone acetyltransferase KAT6A, both winged helices, GST fusion (KAT6A, Homo sapiens, UniProt Q92794, residues 1-181) | protein binding microarray | double-stranded DNA, one strand shown, in vitro | not given, 8-mer, flanks averaged, mean of 2 arrays, mostly near background | relative to: not given, higher = stronger binding | E-score | 0.203
PhoQ, residues 284 288 289 292 302 303 SCCLKL | PhoP, residues 12 14 15 18 19 NYFTV (Escherichia coli, UniProt P23836) | Sort-seq, item: YFP reporter | E. coli | PhoQ-PhoP variant library, with: 10 µM Mg2+ | relative to: high Mg2+ state, higher = stronger signaling | fold induction | 8.79
ATGTAATA | Hepatocyte nuclear factor 3-beta, forkhead domain (FOXA2, Homo sapiens, UniProt Q9Y261, residues 142-269) | protein-binding microarray | double-stranded DNA, one strand shown, in vitro | not given, k-mer, scored over probes, only values ≥0.25 | higher = stronger binding | E-score | 0.319
